Published values of several laboratories.
Each numbered part is a random draw from the data of one study; scales do not carry over between parts. Changes are numbered by the printed parent chain.

Study 1
Target: ABI1, truncated, D143A, DHFR fusion (Arabidopsis thaliana)
Method: DHFR PCA, deep sequencing
Matrix: yeast
Setting: methotrexate growth selection, single substitutions
With: (+)-ABA 0.39 µM
Relative to: wild-type fitted maximum
Reading: higher = stronger binding
Endpoint: relative binding score
Starting sequence: PYL1, truncated, DHFR fusion (Arabidopsis thaliana); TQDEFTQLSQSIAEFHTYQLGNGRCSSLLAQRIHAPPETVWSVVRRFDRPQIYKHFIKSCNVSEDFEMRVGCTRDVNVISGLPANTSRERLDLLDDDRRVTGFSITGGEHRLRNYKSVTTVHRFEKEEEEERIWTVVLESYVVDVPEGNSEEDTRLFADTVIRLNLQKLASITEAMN
L93W: -1.91%
F124G: 5.16%
S80P: -1.21%
V143M: -16.5%
H55V: 92%
T1P: 45.6%
I79Q: 16.7%
L91F: -0.456%

Study 2
Target: CCND1, cyclin fold, Cln2 fusion (human)
Method: yeast growth competition, sequencing
Matrix: yeast
Setting: weak parent motif
Relative to: not given
Reading: higher = stronger binding
Endpoint: normalised enrichment score
Starting sequence: GMNC docking peptide (human); KNAKRNLSSEFAN; partner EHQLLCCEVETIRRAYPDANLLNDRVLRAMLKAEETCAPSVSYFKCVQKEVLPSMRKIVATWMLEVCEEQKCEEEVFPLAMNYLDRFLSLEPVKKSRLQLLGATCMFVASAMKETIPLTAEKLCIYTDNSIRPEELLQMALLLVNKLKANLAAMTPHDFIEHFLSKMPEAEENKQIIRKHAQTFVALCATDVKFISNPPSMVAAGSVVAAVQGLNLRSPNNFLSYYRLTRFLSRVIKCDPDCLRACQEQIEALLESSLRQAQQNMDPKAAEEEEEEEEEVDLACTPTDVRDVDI
N6E: 0.469
E10Y: -0.188
F11Q: 0.325
A3F: 0.261
S8M: 1.73
F11D: 0.302
N2P: 0.791
N6L: -0.369
F11M: 0.288

Study 3
Target: Microphthalmia-associated transcription factor, full length (MITF, Homo sapiens, UniProt O75030-10, residues 1-413)
Method: protein-binding microarray
Molecule type: double-stranded DNA, one strand shown
Matrix: in vitro
Concentration: not given
Setting: k-mer, scored over probes, only values ≥0.25
Reading: higher = stronger binding
Endpoint: E-score
Residues (chain): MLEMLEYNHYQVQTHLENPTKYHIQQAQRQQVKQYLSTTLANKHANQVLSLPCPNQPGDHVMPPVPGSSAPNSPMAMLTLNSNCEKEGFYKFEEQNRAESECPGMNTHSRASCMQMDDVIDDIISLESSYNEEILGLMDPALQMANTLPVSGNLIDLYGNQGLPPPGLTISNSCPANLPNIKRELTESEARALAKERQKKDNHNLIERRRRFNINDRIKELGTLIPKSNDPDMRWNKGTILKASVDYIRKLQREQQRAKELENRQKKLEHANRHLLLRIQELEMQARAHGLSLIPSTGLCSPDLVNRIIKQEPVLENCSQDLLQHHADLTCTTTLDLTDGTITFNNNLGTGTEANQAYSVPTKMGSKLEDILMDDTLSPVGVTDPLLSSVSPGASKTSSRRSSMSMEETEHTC
CACATGG: 0.41
CACATCA: 0.264
ATCACGG: 0.386
CACGTGA: 0.498
CGTGACA: 0.459
GTGGGGA: 0.305
CATCACG: 0.423
ACACGTG: 0.485
CCCCACA: 0.258
CCCGCCC: 0.271
GCGTGAC: 0.47
AGCACGA: 0.285
ACTCGTG: 0.459

Mixed results
PhoQ, residues 284 288 289 292 302 303 SNSSNI — fold induction (PhoP, residues 12 14 15 18 19 SMASL (Escherichia coli, UniProt P23836); Sort-seq, measured: YFP reporter; E. coli; PhoQ-PhoP variant library, with: 10 µM Mg2+; relative to: high Mg2+ state, higher = stronger signaling): 4.76
